Measurements pooled from the literature.
Compare with care: the assays were run in different laboratories.
GLP1R: Glucagon-like peptide 1 receptor (GLP1R, Homo sapiens, UniProt P43220)
UniProt P42892, sequence (whole entry, looked up): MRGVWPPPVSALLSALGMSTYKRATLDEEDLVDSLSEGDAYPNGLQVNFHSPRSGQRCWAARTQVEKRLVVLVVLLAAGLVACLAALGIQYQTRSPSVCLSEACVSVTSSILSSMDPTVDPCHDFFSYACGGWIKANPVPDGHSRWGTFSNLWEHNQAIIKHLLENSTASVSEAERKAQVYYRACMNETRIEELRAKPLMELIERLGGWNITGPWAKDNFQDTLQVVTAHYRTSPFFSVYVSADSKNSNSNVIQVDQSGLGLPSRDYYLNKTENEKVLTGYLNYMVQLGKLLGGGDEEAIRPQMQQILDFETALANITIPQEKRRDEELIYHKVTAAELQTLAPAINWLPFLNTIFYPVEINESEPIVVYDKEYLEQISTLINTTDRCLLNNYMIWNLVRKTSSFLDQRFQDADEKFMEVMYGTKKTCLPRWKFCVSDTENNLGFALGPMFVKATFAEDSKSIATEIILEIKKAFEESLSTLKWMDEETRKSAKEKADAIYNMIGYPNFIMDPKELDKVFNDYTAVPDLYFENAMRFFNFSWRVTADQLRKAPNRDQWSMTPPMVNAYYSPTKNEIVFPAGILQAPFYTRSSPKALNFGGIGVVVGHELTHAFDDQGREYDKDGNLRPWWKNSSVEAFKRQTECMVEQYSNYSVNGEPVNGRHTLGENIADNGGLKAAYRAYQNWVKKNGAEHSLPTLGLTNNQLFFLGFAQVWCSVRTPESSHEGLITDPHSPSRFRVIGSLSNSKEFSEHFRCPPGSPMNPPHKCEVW
UniProt Q68CZ2, sequence (whole entry, looked up): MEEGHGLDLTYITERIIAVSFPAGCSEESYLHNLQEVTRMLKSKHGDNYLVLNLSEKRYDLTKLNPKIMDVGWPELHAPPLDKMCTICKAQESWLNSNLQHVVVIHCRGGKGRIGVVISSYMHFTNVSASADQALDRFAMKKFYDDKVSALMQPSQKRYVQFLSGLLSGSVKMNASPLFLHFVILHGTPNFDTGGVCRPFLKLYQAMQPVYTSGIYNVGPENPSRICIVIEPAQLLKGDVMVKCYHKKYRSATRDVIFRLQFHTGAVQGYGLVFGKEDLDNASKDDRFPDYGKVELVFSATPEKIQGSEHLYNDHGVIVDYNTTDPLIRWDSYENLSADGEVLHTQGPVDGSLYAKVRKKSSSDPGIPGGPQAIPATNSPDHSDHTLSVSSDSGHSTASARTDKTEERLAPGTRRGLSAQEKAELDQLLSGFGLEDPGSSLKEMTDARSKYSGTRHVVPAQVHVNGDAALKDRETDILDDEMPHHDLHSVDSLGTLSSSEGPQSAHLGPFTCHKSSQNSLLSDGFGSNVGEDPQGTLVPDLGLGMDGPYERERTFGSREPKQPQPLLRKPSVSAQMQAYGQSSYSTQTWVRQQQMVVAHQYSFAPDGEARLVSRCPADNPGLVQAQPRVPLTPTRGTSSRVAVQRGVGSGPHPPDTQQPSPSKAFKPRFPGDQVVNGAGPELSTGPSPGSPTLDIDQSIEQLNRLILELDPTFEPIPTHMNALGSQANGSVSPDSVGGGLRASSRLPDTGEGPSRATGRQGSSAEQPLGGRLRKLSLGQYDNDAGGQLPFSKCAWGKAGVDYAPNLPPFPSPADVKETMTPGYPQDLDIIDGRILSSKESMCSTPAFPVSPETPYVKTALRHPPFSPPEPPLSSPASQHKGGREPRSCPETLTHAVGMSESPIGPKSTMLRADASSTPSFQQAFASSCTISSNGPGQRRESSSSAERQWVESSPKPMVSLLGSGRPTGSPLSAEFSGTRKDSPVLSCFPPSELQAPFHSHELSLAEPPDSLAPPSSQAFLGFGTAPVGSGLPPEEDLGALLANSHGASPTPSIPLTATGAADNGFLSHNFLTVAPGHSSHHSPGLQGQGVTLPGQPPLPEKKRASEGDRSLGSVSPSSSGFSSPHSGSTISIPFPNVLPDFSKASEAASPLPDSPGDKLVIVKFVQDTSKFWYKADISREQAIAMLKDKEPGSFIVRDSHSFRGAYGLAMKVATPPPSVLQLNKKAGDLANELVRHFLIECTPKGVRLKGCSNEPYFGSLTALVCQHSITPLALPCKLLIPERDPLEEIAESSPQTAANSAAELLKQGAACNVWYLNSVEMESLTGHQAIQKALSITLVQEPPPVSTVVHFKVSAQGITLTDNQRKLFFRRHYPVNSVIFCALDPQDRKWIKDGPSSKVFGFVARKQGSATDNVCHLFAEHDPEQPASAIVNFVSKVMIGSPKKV
UniProt P28335, sequence (whole entry, looked up): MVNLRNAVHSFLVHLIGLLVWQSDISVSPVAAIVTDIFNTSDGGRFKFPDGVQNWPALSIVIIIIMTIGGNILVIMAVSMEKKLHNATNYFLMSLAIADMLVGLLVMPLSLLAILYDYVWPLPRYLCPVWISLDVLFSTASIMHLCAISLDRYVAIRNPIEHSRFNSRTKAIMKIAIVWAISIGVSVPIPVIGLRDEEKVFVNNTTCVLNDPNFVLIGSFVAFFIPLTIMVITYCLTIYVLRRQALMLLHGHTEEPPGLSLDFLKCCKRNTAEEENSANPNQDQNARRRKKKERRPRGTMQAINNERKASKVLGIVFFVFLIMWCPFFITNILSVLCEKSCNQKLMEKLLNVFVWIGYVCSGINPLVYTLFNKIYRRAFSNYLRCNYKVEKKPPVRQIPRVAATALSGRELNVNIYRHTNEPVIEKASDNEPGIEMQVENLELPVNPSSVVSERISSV
UniProt Q13310, sequence (whole entry, looked up): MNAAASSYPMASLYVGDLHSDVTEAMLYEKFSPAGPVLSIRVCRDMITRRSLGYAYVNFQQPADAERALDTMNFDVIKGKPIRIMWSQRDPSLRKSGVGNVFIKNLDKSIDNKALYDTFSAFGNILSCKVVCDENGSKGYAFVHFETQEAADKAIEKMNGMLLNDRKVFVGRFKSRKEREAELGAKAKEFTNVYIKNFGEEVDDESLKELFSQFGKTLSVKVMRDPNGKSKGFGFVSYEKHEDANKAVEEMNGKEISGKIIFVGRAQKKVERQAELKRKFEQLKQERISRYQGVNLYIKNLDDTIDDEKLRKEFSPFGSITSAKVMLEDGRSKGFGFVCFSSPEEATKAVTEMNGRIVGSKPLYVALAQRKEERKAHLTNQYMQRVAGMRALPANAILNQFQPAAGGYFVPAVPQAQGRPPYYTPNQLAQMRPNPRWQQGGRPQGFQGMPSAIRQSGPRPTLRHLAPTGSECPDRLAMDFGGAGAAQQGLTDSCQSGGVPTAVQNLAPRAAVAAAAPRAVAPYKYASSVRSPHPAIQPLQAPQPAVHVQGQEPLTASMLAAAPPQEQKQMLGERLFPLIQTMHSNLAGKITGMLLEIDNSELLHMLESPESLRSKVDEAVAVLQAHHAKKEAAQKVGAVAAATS
UniProt Q9UHM6, sequence (whole entry, looked up): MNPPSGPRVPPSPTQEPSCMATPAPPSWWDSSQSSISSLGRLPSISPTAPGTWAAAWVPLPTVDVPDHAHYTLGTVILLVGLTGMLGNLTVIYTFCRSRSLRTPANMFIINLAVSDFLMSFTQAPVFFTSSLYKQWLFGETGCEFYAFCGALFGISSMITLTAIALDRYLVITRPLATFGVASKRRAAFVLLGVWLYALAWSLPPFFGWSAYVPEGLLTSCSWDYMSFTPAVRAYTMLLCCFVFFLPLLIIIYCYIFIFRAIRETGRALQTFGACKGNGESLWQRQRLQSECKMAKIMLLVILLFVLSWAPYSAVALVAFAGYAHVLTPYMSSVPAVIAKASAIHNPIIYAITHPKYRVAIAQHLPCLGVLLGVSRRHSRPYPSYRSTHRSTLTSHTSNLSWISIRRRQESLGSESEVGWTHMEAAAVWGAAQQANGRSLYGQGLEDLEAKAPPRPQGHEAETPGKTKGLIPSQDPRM
UniProt P52735, sequence (whole entry, looked up): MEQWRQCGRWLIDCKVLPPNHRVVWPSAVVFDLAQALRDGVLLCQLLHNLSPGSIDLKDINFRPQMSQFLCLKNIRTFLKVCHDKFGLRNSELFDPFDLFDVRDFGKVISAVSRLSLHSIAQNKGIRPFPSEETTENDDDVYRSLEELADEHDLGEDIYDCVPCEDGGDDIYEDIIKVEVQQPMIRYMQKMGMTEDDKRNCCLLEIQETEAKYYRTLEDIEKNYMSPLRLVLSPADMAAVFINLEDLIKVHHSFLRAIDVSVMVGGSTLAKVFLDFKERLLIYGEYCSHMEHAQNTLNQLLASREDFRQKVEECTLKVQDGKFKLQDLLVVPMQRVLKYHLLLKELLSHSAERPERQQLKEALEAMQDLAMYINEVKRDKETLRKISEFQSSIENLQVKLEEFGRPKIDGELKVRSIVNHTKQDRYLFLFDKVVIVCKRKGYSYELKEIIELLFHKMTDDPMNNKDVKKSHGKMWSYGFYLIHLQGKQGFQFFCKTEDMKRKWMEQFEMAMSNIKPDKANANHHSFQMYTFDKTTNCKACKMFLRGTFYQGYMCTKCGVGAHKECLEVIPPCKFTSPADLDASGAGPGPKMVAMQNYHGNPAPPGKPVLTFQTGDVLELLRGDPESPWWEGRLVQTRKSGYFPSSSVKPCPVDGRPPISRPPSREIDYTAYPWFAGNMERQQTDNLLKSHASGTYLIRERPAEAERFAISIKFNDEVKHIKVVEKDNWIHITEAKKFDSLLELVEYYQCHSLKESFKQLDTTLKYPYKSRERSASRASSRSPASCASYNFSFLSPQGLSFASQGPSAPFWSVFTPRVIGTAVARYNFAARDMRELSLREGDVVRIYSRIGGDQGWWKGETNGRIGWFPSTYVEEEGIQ

With `CC[C@H](C)[C@H](NC(=O)[C@H](Cc1ccccc1)NC(=O)[C@H](CCC(=O)O)NC(=O)[C@H](CCCNC(=N)N)NC(=O)[C@H](C)NC(=O)[C@H](C)NC(=O)[C@H](CCC(N)=O)NC(=O)[C@H](CCC(=O)O)NC(=O)[C@H](CCC(=O)O)NC(=O)[C@H](CC(C)C)NC(=O)[C@H](Cc1ccc(O)cc1)NC(=O)[C@H](CO)NC(=O)[C@H](CO)NC(=O)[C@H](CCCCNc1c(NCCCCCN(O)C(=O)CCC(=O)NCCCCCN(O)C(=O)CCC(=O)NCCCCCN(O)C(C)=O)c(=O)c1=O)NC(=O)[C@H](CC(=O)O)NC(=O)[C@H](CO)NC(=O)[C@@H](NC(=O)[C@H](Cc1ccccc1)NC(=O)[C@@H](NC(=O)CNC(=O)[C@H](CCC(=O)O)NC(=O)[C@H](C)NC(=O)CCc1cnc[nH]1)[C@@H](C)O)[C@@H](C)O)C(=O)N[C@@H](C)C(=O)N[C@@H](Cc1c[nH]c2ccccc12)C(=O)N[C@@H](CC(C)C)C(=O)N[C@H](C(=O)N[C@@H](CCCNC(=N)N)C(=O)NCC(=O)N[C@@H](CCCNC(=N)N)C(=O)N[C@@H](CCCCNC(=O)COCCOCCNC(=O)COCCOCCNC(=O)CC[C@H](NC(=O)CCCCCCCCCCCCCCCCC(=O)O)C(=O)O)C(=O)NCC(=O)NCC(=O)N[C@@H](CO)C(=O)N[C@@H](CCCCNc1c(NCCCCCN(O)C(=O)CCC(=O)NCCCCCN(O)C(=O)CCC(=O)NCCCCCN(O)C(C)=O)c(=O)c1=O)C(=O)O)C(C)C` the EC50 was 0.81 nM (GLP1R; cAMP reporter gene, agonist, CRE luciferase; BHK; without Zr, 1% HSA).
For `COc1ccc(N=Nc2ccc3[nH]cc(CCN(C)C)c3c2)cc1`, the Ki was 348 nM (HTR2C (Homo sapiens, UniProt P28335); binding, radioligand binding; ambient light).
For `CC[C@H](C)[C@H](NC(=O)[C@H](Cc1ccccc1)NC(=O)[C@H](CCC(=O)O)NC(=O)[C@H](CCCNC(=N)N)NC(=O)[C@H](C)NC(=O)[C@H](C)NC(=O)[C@H](CCC(N)=O)NC(=O)[C@H](CCC(=O)O)NC(=O)[C@H](CCC(=O)O)NC(=O)[C@H](CC(C)C)NC(=O)[C@H](Cc1ccc(O)cc1)NC(=O)[C@H](CO)NC(=O)[C@H](CO)NC(=O)[C@@H](NC(=O)[C@H](CC(=O)O)NC(=O)[C@H](CO)NC(=O)[C@@H](NC(=O)[C@H](Cc1ccccc1)NC(=O)[C@@H](NC(=O)CNC(=O)[C@H](CCC(=O)O)NC(=O)[C@H](C)NC(=O)CCc1c[nH]cn1)[C@@H](C)O)[C@@H](C)O)C(C)C)C(=O)N[C@@H](C)C(=O)N[C@@H](Cc1c[nH]c2ccccc12)C(=O)N[C@@H](CC(C)C)C(=O)N[C@H](C(=O)N[C@@H](CCCNC(=N)N)C(=O)NCC(=O)N[C@@H](CCCNC(=N)N)C(=O)N[C@@H](CCCCNC(=O)COCCOCCNC(=O)COCCOCCNC(=O)CC[C@H](NC(=O)CCCCCCCCCCCCCCCCC(=O)O)C(=O)O)C(=O)NCC(=O)NCC(=O)N[C@@H](CO)C(=O)N[C@@H](CCCCNc1c(NCCCCCN(O)C(=O)CCC(=O)NCCCCCN(O)C(=O)CCC(=O)NCCCCCN(O)C(C)=O)c(=O)c1=O)C(=O)O)C(C)C` [zirconium-89 labelled], the tissue uptake was 0.11 %ID/g (ex vivo gamma counting; rat, intestine content; subcutaneous, 3 nmol/kg, 24 h, with: [89Zr]-labelled peptide).
For `CO[C@H]1C[C@@H]2CC[C@@H](C)[C@@](O)(O2)C(=O)C(=O)N2CCCC[C@H]2C(=O)O[C@H]([C@H](C)C[C@@H]2CC[C@@H](OC(=O)NCCOCCOCCOCCOCCOCCOCCOCCOCCC(=O)N3CCc4cc(Cn5nc(-c6ccc7oc(N)nc7c6)c6c(N)ncnc65)ccc4C3)[C@H](OC)C2)C[C@@H](O)[C@H](C)/C=C(\C)[C@@H](O)[C@@H](OC)C(=O)[C@H](C)C[C@H](C)/C=C/C=C/C=C/1C`, “incidence of Mucositis TEAE” read 20% (patients with advanced solid tumours; intravenous, 1.6 mg/3 mg weekly, any grade).
The IC50 of `C[C@H]1CN(c2n[nH]c3nc(N[C@H]4CC[C@H](NS(=O)(=O)CCC(F)(F)F)CC4)ncc23)CCO1` is reported as ≥ 20000 nM (Polyadenylate-binding protein 4 (Homo sapiens, UniProt Q13310); biochemical).
`CC[C@H](C)[C@H](NC(=O)c1ccc2c(c1)C(=O)OC21c2ccc(N(C)C)cc2Oc2cc(N(C)C)ccc21)C(=O)N[C@@H](CCC(=O)O)C(=O)N[C@@H](CO)C(=O)N[C@@H](CO)C(=O)N[C@@H](CC(N)=O)C(=O)N[C@@H](Cc1ccc(O)cc1)C(=O)N[C@@H](CCSC)C(=O)N[C@@H](C)C(=O)N1CCC[C@H]1C(=O)N[C@@H](Cc1ccc(OP(=O)(O)O)cc1)C(=O)N[C@@H](CC(=O)O)C(=O)N[C@@H](CC(N)=O)C(=O)N[C@@H](Cc1ccc(O)cc1)C(=O)N[C@H](C(=O)N1CCC[C@H]1C(=O)N[C@@H](CO)C(=O)N[C@@H](C)C(=O)N[C@@H](CC(=O)O)C(=O)O)C(C)C` gave a Kd of 65 nM (Guanine nucleotide exchange factor VAV2, SH2 domain (VAV2, Homo sapiens, UniProt P52735); binding).
`COc1cc2c(Oc3ccc4[nH]c(C)cc4c3F)ccnc2cc1OCC1(N)CC1` — result for “incidence of adverse event”: 0% (item: grade 1 or 2 intestinal obstruction; paediatric high-risk refractory sarcoma; whole group).
With `CC(C)C[C@H](NC(=O)[C@@H](NC(=O)[C@H](CO)NC(=O)[C@H](CO)NC(=O)[C@@H](NC(=O)[C@H](CC(=O)O)NC(=O)[C@H](CC(C)C)NC(=O)[C@@H]1CCCN1C(=O)[C@H](CO)NC(=O)c1ccc2c(c1)C(=O)OC21c2ccc(N(C)C)cc2Oc2cc(N(C)C)ccc21)[C@@H](C)O)C(C)C)C(=O)N[C@@H](Cc1ccc(OP(=O)(O)O)cc1)C(=O)N[C@H](C(=O)N[C@@H](C)C(=O)N[C@H](C(=O)N[C@@H](CCC(N)=O)C(=O)N1CCC[C@H]1C(=O)N[C@@H](CC(N)=O)C(=O)N[C@@H](CCC(=O)O)C(=O)N[C@@H](CC(=O)O)C(=O)O)C(C)C)[C@@H](C)O` the Kd was 966 nM (Tensin-3, SH2 domain (TNS3, Homo sapiens, UniProt Q68CZ2); binding).
With `CC[C@H](C)[C@H](NC(=O)[C@H](Cc1ccccc1)NC(=O)[C@H](CCC(=O)O)NC(=O)[C@H](CCCNC(=N)N)NC(=O)[C@H](C)NC(=O)[C@H](C)NC(=O)[C@H](CCC(N)=O)NC(=O)[C@H](CCC(=O)O)NC(=O)[C@H](CCC(=O)O)NC(=O)[C@H](CC(C)C)NC(=O)[C@H](Cc1ccc(O)cc1)NC(=O)[C@H](CO)NC(=O)[C@H](CO)NC(=O)[C@@H](NC(=O)[C@H](CC(=O)O)NC(=O)[C@H](CO)NC(=O)[C@@H](NC(=O)[C@H](Cc1ccccc1)NC(=O)[C@@H](NC(=O)CNC(=O)[C@H](CCC(=O)O)NC(=O)[C@H](C)NC(=O)CCc1cnc[nH]1)[C@@H](C)O)[C@@H](C)O)C(C)C)C(=O)N[C@@H](C)C(=O)N[C@@H](Cc1c[nH]c2ccccc12)C(=O)N[C@@H](CC(C)C)C(=O)N[C@H](C(=O)N[C@@H](CCCCNc1c(NCCCCCN(O)C(=O)CCC(=O)NCCCCCN(O)C(=O)CCC(=O)NCCCCCN(O)C(C)=O)c(=O)c1=O)C(=O)NCC(=O)N[C@@H](CCCNC(=N)N)C(=O)N[C@@H](CCCCNc1c(NCCCCCN(O)C(=O)CCC(=O)NCCCCCN(O)C(=O)CCC(=O)NCCCCCN(O)C(C)=O)c(=O)c1=O)C(=O)NCC(=O)NCC(=O)N[C@@H](CO)C(=O)N[C@@H](CCCCNC(=O)COCCOCCNC(=O)COCCOCCNC(=O)CC[C@H](NC(=O)CCCCCCCCCCCCCCCCC(=O)O)C(=O)O)C(=O)O)C(C)C` the EC50 was 0.0069 nM (GLP1R; cAMP reporter gene, agonist, CRE luciferase; BHK; with Zr, 0% HSA).
`COc1ccc(S(=O)(=O)N2CCCCC2)cc1C` has a Kb of 110 nM (Melanopsin (OPN4, Homo sapiens, UniProt Q9UHM6); calcium release, antagonist; CHO cells expressing OPN4).
`COc1cc(Nc2ncc(F)c(Nc3ccc4c(n3)NC(=O)C(C)(C)O4)n2)cc(OC)c1OC` gave an IC50 of > 10000 nM (ECE1 (Homo sapiens, UniProt P42892); enzyme activity, inhibitor).
`CC[C@H](C)[C@@H]1NC(=O)[C@@H]2CCCN2C(=O)[C@H](CC(C)C)NC(=O)[C@H](CC(C)C)NC(=O)CNC(=O)[C@@H](NC(=O)[C@@H](NC(=O)[C@H](CC(=O)O)NC(=O)CNC(=O)[C@@H](NC(=O)[C@H](C)NC(=O)CNC(=O)[C@H](CCCCN)NC(=O)[C@H](CC(C)C)NC(=O)[C@H](CC(C)C)NC(=O)[C@H](CCCCN)NC(=O)CNC(=O)[C@@H](NC(=O)[C@@H](N)CC(C)C)C(C)C)C(C)C)C(C)C)CSSC[C@@H](C(=O)O)NC1=O` — result for “log2 fold change”: -1.06 (RNA-seq, item: Slc1a5; mouse, traumatic brain injury model, frontal cortex and hippocampus; dose not given; baseline: TBI alone).
For `CC[C@H](C)[C@H](NC(=O)[C@H](Cc1ccccc1)NC(=O)[C@H](CCC(=O)O)NC(=O)[C@H](CCCNC(=N)N)NC(=O)[C@H](C)NC(=O)[C@H](C)NC(=O)[C@H](CCC(N)=O)NC(=O)[C@H](CCC(=O)O)NC(=O)[C@H](CCC(=O)O)NC(=O)[C@H](CC(C)C)NC(=O)[C@H](Cc1ccc(O)cc1)NC(=O)[C@H](CO)NC(=O)[C@H](CO)NC(=O)[C@@H](NC(=O)[C@H](CC(=O)O)NC(=O)[C@H](CO)NC(=O)[C@@H](NC(=O)[C@H](Cc1ccccc1)NC(=O)[C@@H](NC(=O)CNC(=O)[C@H](CCC(=O)O)NC(=O)[C@H](C)NC(=O)CCc1cnc[nH]1)[C@@H](C)O)[C@@H](C)O)C(C)C)C(=O)N[C@@H](C)C(=O)N[C@@H](Cc1c[nH]c2ccccc12)C(=O)N[C@@H](CC(C)C)C(=O)N[C@H](C(=O)N[C@@H](CCCCNC(=O)COCCOCCNC(=O)COCCOCCNC(=O)CC[C@H](NC(=O)CCCCCCCCCCCCCCCCC(=O)O)C(=O)O)C(=O)NCC(=O)N[C@@H](CCCNC(=N)N)C(=O)N[C@@H](CCCCNc1c(NCCCCCN(O)C(=O)CCC(=O)NCCCCCN(O)C(=O)CCC(=O)NCCCCCN(O)C(C)=O)c(=O)c1=O)C(=O)NCC(=O)NCC(=O)N[C@@H](CO)C(=O)N[C@@H](CCCCNc1c(NCCCCCN(O)C(=O)CCC(=O)NCCCCCN(O)C(=O)CCC(=O)NCCCCCN(O)C(C)=O)c(=O)c1=O)C(=O)NCC(=O)NCC(=O)N[C@@H](CO)C(=O)N[C@@H](CCCCNc1c(NCCCCCN(O)C(=O)CCC(=O)NCCCCCN(O)C(=O)CCC(=O)NCCCCCN(O)C(C)=O)c(=O)c1=O)C(=O)O)C(C)C`, the EC50 was 0.31 nM (GLP1R; cAMP reporter gene, agonist, CRE luciferase; BHK; without Zr, 1% HSA).

For quick reference, copied from above:
With `CC[C@H](C)[C@H](NC(=O)[C@H](Cc1ccccc1)NC(=O)[C@H](CCC(=O)O)NC(=O)[C@H](CCCNC(=N)N)NC(=O)[C@H](C)NC(=O)[C@H](C)NC(=O)[C@H](CCC(N)=O)NC(=O)[C@H](CCC(=O)O)NC(=O)[C@H](CCC(=O)O)NC(=O)[C@H](CC(C)C)NC(=O)[C@H](Cc1ccc(O)cc1)NC(=O)[C@H](CO)NC(=O)[C@H](CO)NC(=O)[C@H](CCCCNc1c(NCCCCCN(O)C(=O)CCC(=O)NCCCCCN(O)C(=O)CCC(=O)NCCCCCN(O)C(C)=O)c(=O)c1=O)NC(=O)[C@H](CC(=O)O)NC(=O)[C@H](CO)NC(=O)[C@@H](NC(=O)[C@H](Cc1ccccc1)NC(=O)[C@@H](NC(=O)CNC(=O)[C@H](CCC(=O)O)NC(=O)[C@H](C)NC(=O)CCc1cnc[nH]1)[C@@H](C)O)[C@@H](C)O)C(=O)N[C@@H](C)C(=O)N[C@@H](Cc1c[nH]c2ccccc12)C(=O)N[C@@H](CC(C)C)C(=O)N[C@H](C(=O)N[C@@H](CCCNC(=N)N)C(=O)NCC(=O)N[C@@H](CCCNC(=N)N)C(=O)N[C@@H](CCCCNC(=O)COCCOCCNC(=O)COCCOCCNC(=O)CC[C@H](NC(=O)CCCCCCCCCCCCCCCCC(=O)O)C(=O)O)C(=O)NCC(=O)NCC(=O)N[C@@H](CO)C(=O)N[C@@H](CCCCNc1c(NCCCCCN(O)C(=O)CCC(=O)NCCCCCN(O)C(=O)CCC(=O)NCCCCCN(O)C(C)=O)c(=O)c1=O)C(=O)O)C(C)C` the EC50 was 0.81 nM (GLP1R; cAMP reporter gene, agonist, CRE luciferase; BHK; without Zr, 1% HSA).
For `COc1ccc(N=Nc2ccc3[nH]cc(CCN(C)C)c3c2)cc1`, the Ki was 348 nM (HTR2C (Homo sapiens, UniProt P28335); binding, radioligand binding; ambient light).
